Published values pooled from the literature.
± marks the error that the study gave.
MDM2: E3 ubiquitin-protein ligase Mdm2 (MDM2, Homo sapiens, UniProt Q00987)
BCL2L1: Bcl-2-like protein 1 (BCL2L1, Homo sapiens, UniProt Q07817)
Ribonucleoside-diphosphate reductase large subunit: Ribonucleoside-diphosphate reductase large subunit (Homo sapiens, UniProt P23921)
Methyl-accepting chemotaxis protein Tlp3 sensing domain: Methyl-accepting chemotaxis protein Tlp3, sensing domain (Campylobacter jejuni, UniProt Q0P864)

`Cc1ccc(S(=O)(=O)/N=C(\Nc2ccc(Cl)cc2)NC(C)(C)C)cc1` gave a Kd of > 100 µM (MDM2; binding, NMR).
For `CC1=C(/C=C/C(C)=C\C=C\C(C)=C\C=O)C(C)(C)CCC1`, the Kd was 0.005 ± 0.003 µM (Retinol-binding protein 2 (Rbp2, Rattus norvegicus, UniProt P06768); binding, fluorescence titration; pH 7.4, 25 °C).
`FITC-CXCL8` gave a Kd of 0.128 µM (heparan sulfate; binding, fluorescence titration; 20 °C).
With `IGAQLRRMADDV` the Kd was 0.00059 ± 9e-05 µM (BCL2L1; yeast display titration; peptide; 2 h, pH 8.0, room temperature).
With `COc1ccc(-c2ccccc2)c(/C=N/NC(=O)c2ccccc2O)c1O` the Kd was 4.8 µM (Ribonucleoside-diphosphate reductase large subunit; binding, fluorescence).
For `CC(=O)N[C@@H](CC(C)C)C(=O)N[C@@H](CCCCN)C(=O)N[C@@H](CCCCN)C(=O)N[C@@H](CC(C)C)C(=O)N[C@@H](CC(C)C)C(=O)N[C@@H](CCCCN)C(=O)N[C@@H](CC(C)C)C(=O)N[C@@H](CC(C)C)C(=O)N[C@@H](CCCCN)C(=O)N[C@@H](CCCCN)C(=O)N[C@@H](CC(C)C)C(=O)N[C@@H](Cc1c[nH]c2ccccc12)C(=O)N[C@@H](CCCCN)C(=O)N[C@@H](CC(C)C)C(=O)N[C@@H](C)C(=O)NCC(N)=O`, the Kd was 0.013 ± 0.001 µM (HIV-1 RRE hairpin RNA; competitive fluorescence anisotropy; pH 7.4, 20 °C, with: rhodamine-Rev peptide).
`Oc1ccc(Br)cc1C=NCCN1CCOCC1` has a Kd of 79.1 µM (Albumin (ALB, Bos taurus, UniProt P02769); binding, UV absorption titration; pH 7.2, 298 K).
`CCC[C@H](N)C(=O)O` gave a Kd of 1420 ± 470 µM (Methyl-accepting chemotaxis protein Tlp3 sensing domain; binding, thermal shift zero heat capacity; at Tm sensing domain).
`GGTFXGYWADLXAF (side-chain stapled)` has a Kd of 0.0029 ± 0.001 µM (MDM2; binding, bacterial surface display flow cytometry; peptide, Escherichia coli cell surface; 3 h, on ice, non-stabilized diazido peptide).
`CN(C)c1cccc2c(S(N)(=O)=O)cccc12` gave a Kd of 1.6 µM (Carbonic anhydrase 2 (CA2, Bos taurus, UniProt P00921); fluorescence competition binding; lower = stronger binding).
`CCCCCCCCCCCCCCCC(=O)OC[C@H](COP(=O)(O)OC1[C@H](O)[C@H](OP(=O)(O)O)C(OP(=O)(O)O)[C@H](OP(=O)(O)O)[C@H]1O)OC(=O)CCCCCCCCCCCCCCC` (stereo partly shown) has a Kd of 0.0002 ± 0.0001 µM (3-phosphoinositide-dependent protein kinase 1, PH domain (PDPK1, Homo sapiens, UniProt O15530); lipid binding, FRET competition; plasma membrane-like bilayers).
The Kd of `CC(C)[C@H](N)C(=O)O` is reported as 2500 ± 166 µM (Methyl-accepting chemotaxis protein Tlp3 (Campylobacter jejuni, UniProt Q0P864); binding, ITC).
With `Cn1nc(CC(=O)Nc2cc(S(=O)(=O)Nc3cccc(Cl)c3)ccc2O)c2ccccc2c1=O` the Kd was 8.5 ± 1.1 µM (APOE (Homo sapiens, UniProt P02649, C130R/S157C); fluorescence quenching titration; Alexa488-labelled protein, HEPES buffer; pH 7.4, 25 °C, label at position 139).
The Kd of `O=C(N/N=C/c1c(O)ccc2ccccc12)c1ccc(-n2ccccc2=O)cc1` is reported as 36.8 µM (Ribonucleoside-diphosphate reductase large subunit; binding, fluorescence; pH 8).
With `O=P(O)(O)O[C@@H]1[C@H](O)[C@H](O)[C@@H](OP(=O)(O)O)[C@H](OP(=O)(O)O)[C@H]1O` the Kd was 11 ± 2 µM (Unconventional myosin-Ie, tail domain (MYO1E, Homo sapiens, UniProt Q12965); binding, stopped-flow fluorescence; pH 7.0, 22 °C, with: competing PtdIns(4,5)P2 LUVs 2%, 1 µM calmodulin).
`CC(=O)N[C@@H](CC(C)C)C(=O)N[C@@H](CCCCN)C(=O)N[C@@H](CCCCN)C(=O)N[C@@H](CC(C)C)C(=O)N[C@@H](Cc1c[nH]c2ccccc12)C(=O)N[C@@H](CCCCN)C(=O)N[C@@H](CC(C)C)C(=O)N[C@@H](CC(C)C)C(=O)N[C@@H](CCCCN)C(=O)N[C@@H](CCCCN)C(=O)N[C@@H](CC(C)C)C(=O)N[C@@H](CC(C)C)C(=O)N[C@@H](CCCCN)C(=O)N[C@@H](CC(C)C)C(=O)N[C@@H](C)C(=O)NCC(N)=O` gave a Kd of 0.0062 ± 0.0005 µM (HIV-1 RRE hairpin RNA; competitive fluorescence anisotropy; pH 7.4, 20 °C, with: rhodamine-Rev peptide).
For `CCNC(=O)[C@H]1O[C@@H](n2cnc3c(NCCCCNC(=O)CCCCCNC(=O)COc4ccc(/C=C/c5ccc6n5[B-](F)(F)[N+]5=C(c7cccs7)C=CC5=C6)cc4)ncnc32)[C@H](O)[C@@H]1O`, the Kd was 0.0384 ± 0.0137 µM (Adenosine receptor A3 (ADORA3, Homo sapiens, UniProt P0DMS8); NanoBRET saturation binding; HEK293 expressing Nluc-A3; 1 h, 37 °C).
For `CC(C)CCC[C@@H](C)[C@H]1CC[C@H]2[C@@H]3CC=C4C[C@@H](O)CC[C@]4(C)[C@H]3CC[C@]12C`, the Kd was 0.94 µM (Eukaryotic translation initiation factor 4E (Eif4e, Mus musculus, UniProt P63073); cap analogue binding, pyrene fluorescence competition; 20 °C).
`O=Cc1c(O)cccc1OCc1cccc(CO)n1` has a Kd of 100 µM (Hemoglobin subunit alpha, with beta chain (HBA1, Homo sapiens, UniProt P69905); binding, cation-exchange HPLC; 37 °C, steady state).
The Kd of `O=C(N/N=C/c1cc(-c2ccccc2)ccc1O)c1ccccc1O` is reported as 8.7 µM (Ribonucleoside-diphosphate reductase large subunit; binding, fluorescence).
The Kd of `CC(C)C[C@H](N)C(=O)O` is reported as 949 ± 182 µM (Methyl-accepting chemotaxis protein Tlp3 sensing domain; binding, thermal shift unfolding equilibrium; at To sensing domain).
For `[I-].[K+]`, the Kd was 710 µM (SLC4A1 (Homo sapiens, UniProt P02730); Cl- exchange, inhibitor, 36Cl flux; erythrocytes, external; pH 8.5, 0 °C, internal Cl- 156 mM).
For `COc1ccc(-c2ccsc2)c(/C=N/NC(=O)c2ccccc2O)c1O`, the Kd was 30 µM (Ribonucleoside-diphosphate reductase large subunit; binding, fluorescence; pH 8).
The Kd of `O=C1c2c(O)ccc(O)c2C(=O)c2c(NCCNCCO)ccc(NCCNCCO)c21` is reported as 6.9 ± 5.9 µM (HIV-1 nucleocapsid-SL4 RNA complex; binding, ESI-FTMS; pH 7.5).
With `CC(=O)N[C@@H](CC(C)C)C(=O)N[C@@H](CCCCN)C(=O)N[C@@H](CCCCN)C(=O)N[C@@H](CC(C)C)C(=O)N[C@@H](CC(C)C)C(=O)N[C@@H](CCCCN)C(=O)N[C@@H](CC(C)C)C(=O)N[C@@H](CC(C)C)C(=O)N[C@@H](CCCCN)C(=O)N[C@@H](CCCCN)C(=O)N[C@@H](CC(C)C)C(=O)N[C@@H](CC(C)C)C(=O)N[C@@H](CCCCN)C(=O)N[C@@H](Cc1c[nH]c2ccccc12)C(=O)N[C@@H](C)C(=O)NCC(N)=O` the Kd was 0.018 ± 0.002 µM (HIV-1 RRE hairpin RNA; competitive fluorescence anisotropy; pH 7.4, 20 °C, with: rhodamine-Rev peptide).
The Kd of `C[C@H](N)C(=O)N[C@@H](CCCNC(=N)N)C(=O)N[C@H](C(=O)N[C@@H](CCCCN)C(=O)N[C@@H](CCC(N)=O)C(=O)N[C@H](C(=O)N[C@@H](C)C(=O)N[C@@H](CCCNC(=N)N)C(=O)N[C@@H](CCCCN)C(=O)N[C@@H](CO)C(=O)N[C@H](C(=O)NCC(=O)O)[C@@H](C)O)[C@@H](C)O)[C@@H](C)O` is reported as 56.2 ± 11.1 µM (Baculoviral IAP repeat-containing protein 5.1-A (birc5.1-a, Xenopus laevis, UniProt Q8JGN5); ITC; pH 7.6, 25 °C).
The Kd of `CC[C@H]1OC(=O)[C@H](C)[C@@H](O[C@H]2C[C@@](C)(OC)[C@@H](O)[C@H](C)O2)[C@H](C)[C@@H](O[C@@H]2O[C@H](C)C[C@H](N(C)C)[C@H]2O)[C@](C)(O)C[C@@H](C)[C@@H]2N[C@@H](COCCOC)O[C@H]([C@H]2C)[C@]1(C)O` is reported as 0.005 ± 0.001 µM (Thermus thermophilus 70S ribosome; binding, fluorescence anisotropy competition; 25 °C, with: BODIPY-erythromycin).
With `Cc1cc(=S)c(O)co1` the Kd was 160 µM (Carbonic anhydrase 2, Co(II)-substituted (CA2, Bos taurus, UniProt P00921); binding, UV-vis titration; pH 7.5, protonated form).
With `COc1cccc2c1C(=O)c1c(O)c3c(c(O)c1C2=O)C[C@@](O)(C(C)=O)C[C@@H]3O[C@H]1C[C@H](N)[C@H](O)[C@H](C)O1` the Kd was 13.1 ± 2.1 µM (HIV-1 nucleocapsid-SL4 RNA complex; binding, ESI-FTMS; pH 7.5).
With `NC(=O)C1=CN([C@@H]2O[C@H](COP(=O)(O)OP(=O)(O)OC[C@H]3O[C@@H](n4cnc5c(N)ncnc54)[C@H](O)[C@@H]3O)[C@@H](O)[C@H]2O)C=CC1` the Kd was 31 ± 14 µM (Pyrroline-5-carboxylate reductase 3 (PYCR3, Homo sapiens, UniProt Q53H96); pH 7.5, 26 °C, free enzyme, random bi bi kinetics).
The Kd of `YAQEIGRNGDEF` is reported as 0.011 ± 0.003 µM (BCL2L1; yeast display titration; peptide; 2 h, pH 8.0, room temperature).
